Published values from different studies.
Every numbered part comes from another study and shows a few of its results, in no order. Substitutions count along the parent as printed.

Block 1
Target: Ras GTPase-activating protein-binding protein 1, full length (G3BP1, Homo sapiens, UniProt Q13283)
Chain of UniProt Q13283 (whole entry, looked up): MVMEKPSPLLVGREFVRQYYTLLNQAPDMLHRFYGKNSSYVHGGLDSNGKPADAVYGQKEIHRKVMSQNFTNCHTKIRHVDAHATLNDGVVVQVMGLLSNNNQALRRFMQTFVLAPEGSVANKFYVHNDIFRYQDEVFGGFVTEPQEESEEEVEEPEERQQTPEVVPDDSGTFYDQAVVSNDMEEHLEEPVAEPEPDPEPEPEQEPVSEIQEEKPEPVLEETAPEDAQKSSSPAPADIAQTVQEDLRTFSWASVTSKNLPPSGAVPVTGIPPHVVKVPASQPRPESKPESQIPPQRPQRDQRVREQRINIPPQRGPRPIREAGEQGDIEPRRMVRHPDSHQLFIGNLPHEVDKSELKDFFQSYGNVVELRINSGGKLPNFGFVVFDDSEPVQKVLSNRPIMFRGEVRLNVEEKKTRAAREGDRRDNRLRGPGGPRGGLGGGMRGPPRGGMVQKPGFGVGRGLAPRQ
Technique: RNA Bind-n-Seq
Molecule type: RNA
Sample: in vitro
Tested at: 200 nM
Notes: whole 134-nt RNA, ends assumed
With: 150 mM LiCl
Relative to: input library
Direction: higher = stronger binding
Each molecule: 7-deaza-guanosine replaces G
Shared flanks, not repeated: GGGAGUUCUACAGUCCGACGAUC … UGGAAUUCUCGGGUGUCAAGG
| Strand | log2 enrichment |
| --- | --- |
| AGUCCUGUGCUACACAUCGUAUGUACCGAAUCGGGCCCCGGGGCCCCGGGGCCCCGGAAAGUAUUAUGUUACGCCGUUCGGAUCUGCACU | -0.0682 |
| UUGGCUACAAUGCAGAGACACAGAAACUACUAUGCAAGAAUGGGGAAACGCUGCUAGGAGCCGUGAACUUCUUUGUCUCUAGCAUCAACA | -0.691 |
| UAACUUUAGAGGAGGAUCUGAUGGAUAUGGCAGUGGACGUGGAUUUGGGGAUGGCAAUAAUGGGUAUGGAGGAGGACCUGGAGGUGGCAA | 0.37 |
| CACAGACAACACGCACCCACACAGACACAGAGGGAAGGGGUUGGGAUAGGGACAGGGUGCACAGCAGGGCGGGGUAGGACCCCAGCCCCU | 0.672 |
| GUCCUGUGCUACACAUCGUAUGUACCGAAUCGGGGAAAAAGGGGAAAGGGGAAAGGGGAAAGUAUUAUGUUACGCCGUUCGGAUCUGCAC | 0.399 |
| UCAAGUCCUGUGCUACACAUCGUAUGUACCGAAUCGGGCCGGGCCGGGGCCGGGAAAGUAUUAUGUUACGCCGUUCGGAUCUGCACUUCC | 0.225 |
| AAGUCCUGUGCUACACAUCGUAUGUACCGAAUCGGGGUUUGGGGUUUGGGGUGGGGAAAGUAUUAUGUUACGCCGUUCGGAUCUGCACUU | -0.254 |

Block 2
Target: CCNF, cyclin fold, Cln2 fusion (human)
Technique: yeast growth competition, sequencing
Sample: yeast
Notes: strong parent motif
Relative to: not given
Direction: higher = stronger binding
Starting sequence: DBF4B docking peptide (human); LGYLYLLLTQSLW
| Substitution | normalised enrichment score |
| --- | --- |
| L6A | 2.01 |
| L1A | 2.36 |
| G2A | 1.9 |
| W13A | 1.57 |
| Y5A | 2.14 |
| L7A | 2.38 |

Block 3
Target: ABI1, truncated, D143A, DHFR fusion (Arabidopsis thaliana)
Technique: DHFR PCA, deep sequencing
Sample: yeast
Notes: methotrexate growth selection, single substitutions
With: (+)-ABA 2500 µM
Relative to: wild-type fitted maximum
Direction: higher = stronger binding
Starting sequence: PYL1, truncated, DHFR fusion (Arabidopsis thaliana); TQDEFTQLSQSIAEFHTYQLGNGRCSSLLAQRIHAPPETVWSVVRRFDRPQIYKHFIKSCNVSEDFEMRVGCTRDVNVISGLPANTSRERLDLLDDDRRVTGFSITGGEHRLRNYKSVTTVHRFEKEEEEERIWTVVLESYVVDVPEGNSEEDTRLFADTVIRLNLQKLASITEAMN
| Substitution | relative binding score [%] |
| --- | --- |
| R113H | 106 |
| D92F | 85.5 |
| F47A | 23.6 |
| R45F | 32.7 |
| A84Q | 22.6 |
| T120F | 8.44 |
| N61H | 87.9 |
| E127P | 104 |
| K126F | 98.1 |
| L29P | 3.07 |
| G102V | 78.3 |
| C25L | 89.7 |
| R32H | 98.1 |
| R98Q | 98.3 |
| T39I | 98.5 |
| V161P | 10.3 |
| V145Y | 76.1 |
| H110N | 111 |

Block 4
Target: RNA binding protein fox-1 homolog 2, RRM domain, GST-SBP tag (RBFOX2, Homo sapiens, UniProt O43251-10, residues 100-194)
Technique: RNA Bind-n-Seq
Molecule type: RNA
Sample: in vitro
Tested at: 365 nM
Notes: natural RNA segment, single round, ends assumed
Relative to: no-protein control
Direction: higher = stronger binding
Shared flanks, not repeated: GGGAGUUCUACAGUCCGACGAUC … UGGAAUUCUCGGGUGCCAA
Construct (chain): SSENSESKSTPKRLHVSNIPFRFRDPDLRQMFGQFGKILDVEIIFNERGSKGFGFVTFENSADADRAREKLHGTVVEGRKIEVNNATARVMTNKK
| Strand | RBNS enrichment (R) |
| --- | --- |
| ACGACCUCAUCCUGGAGAUCGAGUGAUCUUGCCCCAGACCGGCAGCCUGGCCAUCCCCAAGCCUUCAACAGAAGCUGUGCUGCCACGGCAGGCCCAGGCCAGCCAGUGCC | 0.338 |
| UUGUAAGGUGAAUUUCAAAGGGAGGGUUUUAGCUUAGGUAGUUAUUUUCUACCUAACUUUUCAAGUAGGAGCCUCUGCCUUUAGUCAGUAGUCUUUGAAGCAAGUAUCCU | 0.434 |
| ACACAAGUAGCACCGUGUCGCCUCCCUUUAUCUUCAUAUUGAUAAAAGACUUUAUGUGGAUCUUGUAAAACAGAACCAGAUCUCCUUCUGGGGAAGGCCUUGCCUCUAGG | 0.71 |
| ACCUAGGGAAUGGUUACCACUCCAUGUAAAGAAAACUCCCUCAUGCGUCCUCUGGGACCUUCUUAGAUGCUGUAAGGUACCUACAUACAGACUAAAUGUGCAAGCACCUU | 0.586 |
| GUAAUUCAGAUUUGUCAUUUGGAGGAAAAUCAACAUAAUCUGAAUAUAAAGCAGGCAGCAUUGAGAACUUCUACGUAUGUGAACAUCAUUGACUUCGUCGAGCAGUGAUU | 8.58 |
| UCUGACCUCUACACGUAUGCCACGCUUGUACCCACACACGCGCACACACACAGACUUAUAAUGCAAAUGGAUCUCUGAUCAUAAAGGCCAAAAUUGUGUUCUAUCUCUAC | 0.531 |
| AUGUAUUGUAAAAUUUUGUAGUUUUGAUCACUUGUGAAUUUACUGUUGAUGUGGUAGCCACCUGCUGCAAUGGUUCCUCUUGUAGGUGAAUAAAUGUCUUGUCUACCCAC | 0.698 |
| UUCCCAGGGACGUCGCGCCUUGUUUCUCCUCCCUCUCUGUGUCUGGGGAGGAGGAGCUGAGUCCUGACUCUGUGCUCCUGUUAGGCAGGGCCUCUGGGAAGAGGAGAAAU | 0.616 |
| AAUAUCCAAAUUAUAAAUACUAAGGAAACUUUGUUUCCAGUUUGGCAAUGAUCCAGUCUAAAGUAGAACCUCAAUUUAAAAGAUUGAGGUUCAGAGCAUCAACACUCCAU | 0.294 |
| UGUCUUUUAAUAGAUAUAGGCAUCUGUUCAUCCACAUUUGAACACAGAGCUAAAGAAACGUUUUUUAAAAAACUACUUUUAAUCCAGAUCCAUGGAAUAAUAUGUAAUUC | 0.357 |
| AGUUAGGGCCUCUGCAGCUUAUGGUGGCUUAAAAUGGAGAGAGCAUCUUGCCUGGCCGAGUGUUUGUGCUAUGUGAGCAUGAGGCUUUAUUUGACUGUGGAAGAAGACAC | 1.1 |
| AGUGUGGCCAAGCAGAAGUGGAUGUUUAUGAUGACGGUGGGGGCCCAGAGGUCAUAGGUGAUGGUCCUACUGCCCAACAGUUGCCUUUUGAAUCCUUAUGUUGAUGAUGG | 1.25 |

Block 5
Target: Sal-like protein 4, full length isoform B (SALL4, Homo sapiens, UniProt Q9UJQ4-2, residues 1-616)
Technique: universal PBM
Molecule type: double-stranded DNA, one strand shown
Sample: in vitro
Tested at: not given
Notes: 8-mer, flanks averaged, mean of replicates
Direction: higher = stronger binding
Residues (chain): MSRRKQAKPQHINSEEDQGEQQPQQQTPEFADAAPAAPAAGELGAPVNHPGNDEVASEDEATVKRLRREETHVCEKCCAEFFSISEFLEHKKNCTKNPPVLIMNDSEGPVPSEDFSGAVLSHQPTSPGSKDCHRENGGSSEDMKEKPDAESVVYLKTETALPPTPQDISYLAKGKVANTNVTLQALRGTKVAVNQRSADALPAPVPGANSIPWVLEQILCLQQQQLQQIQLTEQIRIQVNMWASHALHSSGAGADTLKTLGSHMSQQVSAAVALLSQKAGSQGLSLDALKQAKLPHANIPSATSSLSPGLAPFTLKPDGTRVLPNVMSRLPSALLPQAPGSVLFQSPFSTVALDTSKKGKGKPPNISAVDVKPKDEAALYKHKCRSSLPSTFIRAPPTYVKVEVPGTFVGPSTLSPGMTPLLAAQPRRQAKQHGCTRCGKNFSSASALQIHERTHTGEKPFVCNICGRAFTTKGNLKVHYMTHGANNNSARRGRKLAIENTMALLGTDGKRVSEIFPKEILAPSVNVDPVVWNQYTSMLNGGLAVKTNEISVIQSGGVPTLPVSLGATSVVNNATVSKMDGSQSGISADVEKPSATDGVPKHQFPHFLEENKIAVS
| Strand | E-score |
| --- | --- |
| ATGCTCCG | -0.111 |
| ACCTGTAT | 0.0906 |
| CGGGCTTA | -0.219 |
| ACTGAAGC | -0.0365 |
| GAACGGTA | 0.0394 |
| AAGTGTAG | 0.109 |
| ACCGCTTC | -0.163 |
| AGAGATCG | -0.164 |
| CTGGTCAC | -0.155 |
| GCACTCGC | -0.156 |
| AATTCGCA | 0.0556 |
| CAGCATAG | 0.0939 |
| GAGACAAC | -0.13 |
| CGAACGCG | -0.18 |
| ATCTCGTG | -0.0999 |
| CGGAGACG | -0.117 |
| CTCGCCAC | -0.191 |
| CTGACGTC | -0.0161 |
| AGTAGCTA | 0.0583 |
| ATAGTCAG | 0.119 |

Repeated from above (block 5):
| Strand | E-score |
| --- | --- |
| ATGCTCCG | -0.111 |
| AAGTGTAG | 0.109 |
| CTGACGTC | -0.0161 |
| ATCTCGTG | -0.0999 |
| AGTAGCTA | 0.0583 |
| AGAGATCG | -0.164 |
| CTGGTCAC | -0.155 |
| CGGAGACG | -0.117 |
